Experimental data collected from several papers.
Each line is one published result; not all experiments were run side by side. Numbers after ± are the reported error.

[2H]C([2H])([2H])C([2H])([2H])C([2H])([2H])OC(C(=O)OC1CCNCC1)(c1ccccc1)c1ccccc1
half-life (male human, plasma; oral, 18 mg, multiple doses): 70 h

CC(C)C[C@H](NC(=O)[C@H](Cc1cccc2ccccc12)NC(=O)[C@H](CNC(=O)c1ccc2cc(F)ccc2c1)NC(=O)[C@H](CO)NC(=O)C1CCNCC1)C(=O)N[C@@H](CN)C(=O)N1CCC[C@H]1C(=O)N[C@H](C(N)=O)[C@@H](C)O
half-life (chemical stability; male human, serum; 1 mM, pH 7.4): > 24 h

CC[C@H](C)C(=O)N1CCC(NC(=O)Nc2ccc(OC(F)(F)F)c(F)c2)CC1
half-life (human, plasma; oral, 24 mg, single dose, healthy volunteers): 41.8 h

CC[C@H](C)[C@@H]1NC(=O)[C@H](Cc2ccc(O)cc2)NC(=O)[C@@H](N)CSCSC[C@@H](C(=O)N2CCC[C@H]2C(=O)N[C@@H](CC(C)C)C(=O)NCC(N)=O)NC(=O)[C@H](CC(N)=O)NC(=O)[C@H](CCC(N)=O)NC1=O
half-life (chemical stability; male human, serum; 450 µM): 72 h

C=CC1CN2CCC1CC2C(OC(=O)NCCCCCCNC(=O)OC(c1ccnc2ccc(OC)cc12)C1CC2CCN1CC2C=C)c1ccnc2ccc(OC)cc12 (stereo not drawn)
half-life (chemical stability; human, plasma; pH 7.4): > 90 h

CSCC[C@H](NC(=O)CNC(=O)[C@H](CC(=O)O)NC(=O)[C@@H](NC(=O)[C@@H](NC(=O)[C@@H](NC(=O)CNC(=O)[C@H](CCC(N)=O)NC(=O)[C@H](CCSC)NC(=O)[C@H](CC(=O)O)NC(=O)[C@H](C)NC(=O)[C@H](C)NC(=O)[C@@H](NC(=O)[C@H](CO)NC(=O)[C@@H](N)CC(C)C)[C@@H](C)O)C(C)C)C(C)C)[C@@H](C)O)C(=O)N[C@@H](C)C(=O)N[C@@H](CO)C(=O)NCC(=O)N[C@@H](CC(C)C)C(=O)N[C@@H](CC(=O)O)C(=O)N[C@@H](CCCCN)C(=O)N[C@@H](CC(=O)O)C(=O)N[C@@H](Cc1ccc(O)cc1)C(=O)N[C@@H](CC(C)C)C(=O)N[C@@H](CCCCN)C(=O)N1CCC[C@H]1C(=O)N[C@@H](CC(=O)O)C(=O)N[C@@H](CC(=O)O)C(=O)O
half-life (human, serum; intravenous, 4.16 mg/kg, patients, infusion): 0.105 h

CC(=CCC(O)C(C)=Cc1csc(C)n1)CC=CC(C)C(O)C(C)C(=O)C(C)(C)C(O)CC(=O)O (stereo not drawn)
half-life (human, plasma; intravenous infusion, 27 mg/m2 KOS-1584, 3 h infusion, cycle 1): 34.6 ± 17 h

c1ccc(C2(CCNC3CCC4(SCCS4)c4ccccc43)CCOC3(CCCC3)C2)nc1 (stereo not drawn)
half-life (Sprague-Dawley rat, plasma; intravenous, 0.15 mg/kg): 1.13 h

Cc1cc(Nc2nc(C[C@@]3(C(=O)O)CCN(Cc4cccc(Cl)c4F)[C@H](C)C3)cc(C)c2F)n[nH]1
half-life (Sprague-Dawley rat, plasma; oral, 0.5 mg/kg, single dose): 4.36 h

Excerpt of the above:
c1ccc(C2(CCNC3CCC4(SCCS4)c4ccccc43)CCOC3(CCCC3)C2)nc1 (stereo not drawn)
half-life (Sprague-Dawley rat, plasma; intravenous, 0.15 mg/kg): 1.13 h
